{"data": "Experimental data of several laboratories", "note": "Numbered parts are unrelated; each lists some results of a single study. Values joined by “and” are separate records of one study, mostly repeats; a detail may differ.", "chain of UniProt Q05513 (whole entry, looked up)": "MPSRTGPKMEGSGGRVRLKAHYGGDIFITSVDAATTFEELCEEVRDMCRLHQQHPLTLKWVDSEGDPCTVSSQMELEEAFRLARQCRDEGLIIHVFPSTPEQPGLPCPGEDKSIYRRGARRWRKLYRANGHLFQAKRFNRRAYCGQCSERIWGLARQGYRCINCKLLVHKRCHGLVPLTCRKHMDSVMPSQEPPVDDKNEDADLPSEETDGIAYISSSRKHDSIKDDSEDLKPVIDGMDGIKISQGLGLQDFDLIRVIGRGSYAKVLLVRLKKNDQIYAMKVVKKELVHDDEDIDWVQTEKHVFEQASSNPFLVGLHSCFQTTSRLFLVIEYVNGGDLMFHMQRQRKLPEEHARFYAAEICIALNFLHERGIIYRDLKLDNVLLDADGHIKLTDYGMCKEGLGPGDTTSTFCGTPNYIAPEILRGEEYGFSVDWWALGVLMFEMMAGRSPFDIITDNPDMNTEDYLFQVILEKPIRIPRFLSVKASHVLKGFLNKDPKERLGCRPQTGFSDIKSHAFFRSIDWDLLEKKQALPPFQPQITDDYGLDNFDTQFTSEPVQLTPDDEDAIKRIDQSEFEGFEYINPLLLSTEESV", "chain of UniProt Q9BYP7 (whole entry, looked up)": "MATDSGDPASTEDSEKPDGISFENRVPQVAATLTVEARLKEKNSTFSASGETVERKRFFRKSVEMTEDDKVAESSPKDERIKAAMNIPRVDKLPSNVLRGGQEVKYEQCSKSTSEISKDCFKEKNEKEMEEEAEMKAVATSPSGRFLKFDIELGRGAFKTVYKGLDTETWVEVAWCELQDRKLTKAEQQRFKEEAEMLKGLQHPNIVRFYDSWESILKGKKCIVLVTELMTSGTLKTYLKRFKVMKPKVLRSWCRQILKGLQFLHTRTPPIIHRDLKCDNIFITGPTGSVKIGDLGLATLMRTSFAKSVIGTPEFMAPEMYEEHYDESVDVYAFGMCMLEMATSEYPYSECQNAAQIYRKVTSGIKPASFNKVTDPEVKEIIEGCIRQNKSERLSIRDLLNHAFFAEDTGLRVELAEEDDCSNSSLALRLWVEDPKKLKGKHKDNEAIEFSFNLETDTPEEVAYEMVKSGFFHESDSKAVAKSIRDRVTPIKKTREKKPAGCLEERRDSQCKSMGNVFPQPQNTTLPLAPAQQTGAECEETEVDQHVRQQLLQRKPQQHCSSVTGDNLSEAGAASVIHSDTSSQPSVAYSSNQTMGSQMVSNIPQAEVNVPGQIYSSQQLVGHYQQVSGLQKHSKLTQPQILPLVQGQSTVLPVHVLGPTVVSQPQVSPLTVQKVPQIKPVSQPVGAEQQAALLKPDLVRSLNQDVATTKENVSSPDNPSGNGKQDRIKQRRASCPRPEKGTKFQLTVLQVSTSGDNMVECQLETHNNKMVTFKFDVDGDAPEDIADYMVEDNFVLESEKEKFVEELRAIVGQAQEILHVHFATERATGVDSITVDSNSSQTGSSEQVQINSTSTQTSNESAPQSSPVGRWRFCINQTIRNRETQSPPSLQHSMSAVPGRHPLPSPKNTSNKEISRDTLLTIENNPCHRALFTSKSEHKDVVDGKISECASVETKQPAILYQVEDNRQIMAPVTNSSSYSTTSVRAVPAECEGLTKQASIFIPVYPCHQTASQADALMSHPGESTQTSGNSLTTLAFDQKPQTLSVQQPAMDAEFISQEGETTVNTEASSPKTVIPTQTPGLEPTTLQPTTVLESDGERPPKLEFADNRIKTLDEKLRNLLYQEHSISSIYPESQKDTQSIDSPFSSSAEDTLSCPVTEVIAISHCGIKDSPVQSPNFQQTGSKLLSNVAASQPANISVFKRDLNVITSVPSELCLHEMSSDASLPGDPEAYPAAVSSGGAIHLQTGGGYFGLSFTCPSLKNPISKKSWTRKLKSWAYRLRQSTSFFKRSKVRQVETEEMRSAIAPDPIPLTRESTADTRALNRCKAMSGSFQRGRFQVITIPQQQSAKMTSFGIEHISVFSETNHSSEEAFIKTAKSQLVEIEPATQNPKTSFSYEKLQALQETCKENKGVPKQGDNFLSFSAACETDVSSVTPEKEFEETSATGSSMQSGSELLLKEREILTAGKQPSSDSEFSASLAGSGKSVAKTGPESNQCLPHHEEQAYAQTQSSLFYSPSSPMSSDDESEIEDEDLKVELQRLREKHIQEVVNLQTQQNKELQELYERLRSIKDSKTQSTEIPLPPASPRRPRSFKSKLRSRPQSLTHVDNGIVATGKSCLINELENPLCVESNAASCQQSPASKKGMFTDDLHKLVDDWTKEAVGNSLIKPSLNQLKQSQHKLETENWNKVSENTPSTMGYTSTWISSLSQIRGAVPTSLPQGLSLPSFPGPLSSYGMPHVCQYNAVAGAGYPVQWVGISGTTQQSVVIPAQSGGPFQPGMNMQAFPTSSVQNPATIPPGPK", "chain of UniProt O15111 (whole entry, looked up)": "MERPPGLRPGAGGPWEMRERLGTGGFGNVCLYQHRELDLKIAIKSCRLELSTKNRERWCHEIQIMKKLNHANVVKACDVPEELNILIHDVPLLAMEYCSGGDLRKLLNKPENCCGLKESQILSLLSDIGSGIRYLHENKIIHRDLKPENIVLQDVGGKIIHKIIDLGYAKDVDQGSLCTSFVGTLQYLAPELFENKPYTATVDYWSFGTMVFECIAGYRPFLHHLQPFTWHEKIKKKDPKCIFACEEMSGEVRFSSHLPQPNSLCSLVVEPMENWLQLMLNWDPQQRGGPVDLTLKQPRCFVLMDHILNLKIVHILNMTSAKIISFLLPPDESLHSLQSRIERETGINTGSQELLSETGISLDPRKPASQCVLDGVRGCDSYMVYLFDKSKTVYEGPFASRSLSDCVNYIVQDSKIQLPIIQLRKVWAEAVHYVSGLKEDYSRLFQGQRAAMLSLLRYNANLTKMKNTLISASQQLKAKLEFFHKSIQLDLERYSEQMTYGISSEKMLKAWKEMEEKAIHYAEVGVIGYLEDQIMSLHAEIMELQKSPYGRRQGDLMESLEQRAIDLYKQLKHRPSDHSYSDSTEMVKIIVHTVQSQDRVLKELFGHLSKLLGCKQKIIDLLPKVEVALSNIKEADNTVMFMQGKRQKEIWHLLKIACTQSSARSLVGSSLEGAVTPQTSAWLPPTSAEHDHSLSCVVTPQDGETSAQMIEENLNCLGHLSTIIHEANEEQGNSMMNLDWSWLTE", "chain of UniProt P78362 (whole entry, looked up)": "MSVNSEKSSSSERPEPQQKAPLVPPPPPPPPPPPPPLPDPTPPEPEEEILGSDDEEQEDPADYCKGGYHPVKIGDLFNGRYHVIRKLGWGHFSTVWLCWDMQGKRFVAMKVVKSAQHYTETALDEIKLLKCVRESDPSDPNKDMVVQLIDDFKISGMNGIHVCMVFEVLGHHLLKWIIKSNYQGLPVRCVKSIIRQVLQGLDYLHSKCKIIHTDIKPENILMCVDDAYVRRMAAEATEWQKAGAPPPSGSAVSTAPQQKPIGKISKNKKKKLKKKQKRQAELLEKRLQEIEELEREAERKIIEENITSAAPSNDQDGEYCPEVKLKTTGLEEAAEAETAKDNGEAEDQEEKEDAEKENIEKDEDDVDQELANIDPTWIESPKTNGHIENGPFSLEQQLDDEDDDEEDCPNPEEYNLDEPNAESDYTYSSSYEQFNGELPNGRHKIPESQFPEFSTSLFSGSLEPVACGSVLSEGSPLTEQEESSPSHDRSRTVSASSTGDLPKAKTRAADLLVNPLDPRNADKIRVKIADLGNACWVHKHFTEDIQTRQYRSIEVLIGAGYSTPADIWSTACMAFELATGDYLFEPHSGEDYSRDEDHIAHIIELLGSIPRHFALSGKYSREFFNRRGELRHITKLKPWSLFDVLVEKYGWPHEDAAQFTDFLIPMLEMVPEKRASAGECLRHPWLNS", "chain of UniProt O75385 (whole entry, looked up)": "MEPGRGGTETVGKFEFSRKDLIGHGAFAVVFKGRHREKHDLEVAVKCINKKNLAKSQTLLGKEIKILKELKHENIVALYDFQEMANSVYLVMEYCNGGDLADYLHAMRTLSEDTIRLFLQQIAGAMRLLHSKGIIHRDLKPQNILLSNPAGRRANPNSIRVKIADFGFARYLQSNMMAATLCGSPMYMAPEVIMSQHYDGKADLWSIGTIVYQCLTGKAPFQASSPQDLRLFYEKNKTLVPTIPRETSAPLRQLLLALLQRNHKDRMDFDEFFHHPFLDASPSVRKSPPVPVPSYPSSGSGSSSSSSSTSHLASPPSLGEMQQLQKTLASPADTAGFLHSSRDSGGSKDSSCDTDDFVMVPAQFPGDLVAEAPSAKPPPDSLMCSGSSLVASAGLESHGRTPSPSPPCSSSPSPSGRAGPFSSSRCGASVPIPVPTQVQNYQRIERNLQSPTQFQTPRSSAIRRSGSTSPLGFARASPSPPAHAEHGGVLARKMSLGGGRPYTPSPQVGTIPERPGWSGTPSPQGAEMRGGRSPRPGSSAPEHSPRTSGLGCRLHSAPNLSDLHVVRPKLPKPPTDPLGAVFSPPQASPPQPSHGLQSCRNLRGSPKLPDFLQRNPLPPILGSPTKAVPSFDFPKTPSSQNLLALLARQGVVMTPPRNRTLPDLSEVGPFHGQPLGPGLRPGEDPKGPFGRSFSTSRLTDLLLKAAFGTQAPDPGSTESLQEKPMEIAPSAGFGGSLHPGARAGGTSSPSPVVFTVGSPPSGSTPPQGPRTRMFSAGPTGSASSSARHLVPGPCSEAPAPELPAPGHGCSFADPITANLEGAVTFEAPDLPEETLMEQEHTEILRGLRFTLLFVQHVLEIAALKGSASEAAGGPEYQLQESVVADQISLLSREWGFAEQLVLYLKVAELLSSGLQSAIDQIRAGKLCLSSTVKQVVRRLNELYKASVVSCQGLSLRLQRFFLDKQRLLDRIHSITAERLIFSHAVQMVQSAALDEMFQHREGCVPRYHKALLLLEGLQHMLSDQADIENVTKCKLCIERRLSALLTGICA"}
{"data": "Sample 1", "Compound": "CC(C)(C)c1cc(C=C(C#N)C#N)cc(Br)c1O", "observed": "enzyme activity", "action": "inhibitor", "concentration": "0.5 µM"}
{"target": "Serine/threonine-protein kinase WNK3 (WNK3, Homo sapiens, UniProt Q9BYP7)", "remaining activity [%]": 106}
{"target": "Protein kinase C zeta type (PRKCZ, Homo sapiens, UniProt Q05513)", "remaining activity [%]": 102}
{"target": "SRSF protein kinase 2 (SRPK2, Homo sapiens, UniProt P78362)", "remaining activity [%]": 109}
{"target": "Inhibitor of nuclear factor kappa-B kinase subunit alpha (CHUK, Homo sapiens, UniProt O15111)", "relative to": "control", "remaining activity [%]": 89.7}
{"target": "Serine/threonine-protein kinase ULK1 (ULK1, Homo sapiens, UniProt O75385)", "remaining activity [%]": 88.2}
{"target": "Calcium/calmodulin-dependent protein kinase type II subunit alpha (CAMK2A, Homo sapiens, UniProt Q9UQM7)", "relative to": "control", "remaining activity [%]": 104}
{"target": "Platelet-derived growth factor receptor alpha (PDGFRA, Homo sapiens, UniProt P16234)", "relative to": "control", "remaining activity [%]": 95.4}
{"target": "Serine/threonine-protein kinase Nek6 (NEK6, Homo sapiens, UniProt Q9HC98)", "remaining activity [%]": 111}
{"target": "Serine/threonine-protein kinase Sgk2 (SGK2, Homo sapiens, UniProt Q9HBY8)", "remaining activity [%]": 120}
{"target": "Tyrosine-protein kinase SYK (SYK, Homo sapiens, UniProt P43405)", "relative to": "control", "remaining activity [%]": 97.6}
{"target": "G protein-coupled receptor kinase 6 (GRK6, Homo sapiens, UniProt P43250)", "remaining activity [%]": 94.6}
{"data": "Sample 2", "SMILES": "CC[C@@H](C)c1nc2cc(Nc3ccnc4ccc(S(=O)(=O)C(C)C)cc34)ccc2s1.Cl", "method": "CCK-8"}
{"cell line": "L929 RIPK3-/- reexpressing RIPK3 K51A/R69H", "concentration": "3.125 µM", "survival": "97.6% and 98.6% and 89.1%"}
{"cell line": "L929 RIPK3-/- reexpressing RIPK3 K51A", "concentration": "3.125 µM", "survival": "97.7% and 97.3% and 103% and 90.8%"}
{"cell line": "L929 RIPK3-/- reexpressing RIPK3 K51A/R69H", "concentration": "25 µM", "survival": "82.3% and 81.7% and 89.3% and 80%"}
{"cell line": "L929 RIPK3-/- reexpressing RIPK3 K51A/R69H", "concentration": "12.5 µM", "survival": "88.6% and 93.7% and 92.1% and 92.3% and 93.5%"}
{"cell line": "L929 RIPK3-/- reexpressing RIPK3 K51A", "concentration": "50 µM", "together with": "zVAD", "survival": "27.3% and 27.5% and 51.6% and 49.8%"}
{"cell line": "L929 RIPK3-/- reexpressing RIPK3 K51A/R69H", "concentration": "50 µM", "survival": "52.4% and 39.9% and 34.2% and 33.5%"}
{"cell line": "L929 RIPK3-/- reexpressing RIPK3 K51A", "concentration": "6.25 µM", "survival": "88% and 102% and 94.3% and 89.1% and 90.6%"}
{"cell line": "L929 RIPK3-/- reexpressing RIPK3 K51A/R69H", "concentration": "50 µM", "together with": "zVAD", "survival": "33.5% and 30.7% and 41% and 35.7%"}
{"data": "Sample 3", "cell line": "mouse MPNST tumor cells", "method": "high-content immunofluorescence imaging", "measured": "nuclear SOX9", "concentration": "10 µM", "time": "12 h", "setting": "mean of 2 replicates", "relative to": "DMSO control", "reading": "higher = more nuclear SOX9"}
{"Compound": "O=C(N[C@H]1CN2CCC1CC2)c1ccc2c(c1)OCCO2", "nuclear SOX9 intensity": "96.1 % of DMSO"}
{"Compound": "CC(C)=CCCN1CCC(NC(=O)[C@](O)(c2ccccc2)C2CCCC2)CC1", "nuclear SOX9 intensity": "120 % of DMSO"}
{"Compound": "O=C(NCCN1CCC2(CC1)C(=O)NCN2c1cccc(F)c1)c1ccc(F)c(F)c1", "nuclear SOX9 intensity": "132 % of DMSO"}
{"Compound": "C=CCC1(CC(C)C)C(=O)NC(=O)NC1=O", "nuclear SOX9 intensity": "102 % of DMSO"}
{"data": "Single results of other studies", "organism": "Sarcocystis neurona", "observed": "parasite growth", "strain": "GFP/luciferase reporter", "concentration": "10 µM", "setting": "hit confirmation screen"}
{"SMILES": "CC(C)[C@]12O[C@H]1[C@@H]1O[C@]13[C@]1(O[C@H]1C[C@H]1C4=C(CC[C@@]13C)C(=O)OC4)[C@@H]2O", "inhibition [%]": 97.8}
{"SMILES": "CN1C(=O)CN=C(c2ccccc2)c2cc(Cl)ccc21", "inhibition [%]": -0.9}
{"note": "Repeated from above (sample 2):"}
{"cell line": "L929 RIPK3-/- reexpressing RIPK3 K51A/R69H", "concentration": "12.5 µM", "survival": "88.6% and 93.7% and 92.1% and 92.3% and 93.5%"}
{"cell line": "L929 RIPK3-/- reexpressing RIPK3 K51A", "concentration": "50 µM", "together with": "zVAD", "survival": "27.3% and 27.5% and 51.6% and 49.8%"}
{"cell line": "L929 RIPK3-/- reexpressing RIPK3 K51A/R69H", "concentration": "50 µM", "survival": "52.4% and 39.9% and 34.2% and 33.5%"}
{"cell line": "L929 RIPK3-/- reexpressing RIPK3 K51A", "concentration": "6.25 µM", "survival": "88% and 102% and 94.3% and 89.1% and 90.6%"}
